Measured values of several laboratories.
Each numbered part is a random draw from the data of one study; scales do not carry over between parts.

Sample 1
Target: Fragile X messenger ribonucleoprotein 1, C-terminal low-complexity region (Fmr1, Mus musculus, UniProt P35922)
Method: RNA Bind-n-Seq
Form: RNA
Sample: in vitro
Concentration: 200 nM
Notes: whole 134-nt RNA, ends assumed
Together with: 150 mM KCl
Reference: input library
Reading: higher = stronger binding
Shared flanks, not repeated: GGGAGUUCUACAGUCCGACGAUC … UGGAAUUCUCGGGUGUCAAGG
| Strand | log2 enrichment |
| --- | --- |
| CCUGUGCUACACAUCGUAUGUACCGAAUCGGUUUUUUGGGGUUUUUUGGGUUUUUUGGGGAAAGUAUUAUGUUACGCCGUUCGGAUCUGC | -0.543 |
| ACCAUGCAGGUGGGCAUCUUUGGGAAGUGGGGCAAGGGGGGGAUAGGGAGGGAGGUAACACUUUGGGAACAGGUGGUCCCAGGUCGUUUC | 0.868 |
| AGUCCUGUGCUACACAUCGUAUGUACCGAAUCGGGGUUUUUGGGGUUUGGGGAGGGGAAAGUAUUAUGUUACGCCGUUCGGAUCUGCACU | 0.933 |
| CCUGUGCUACACAUCGUAUGUACCGAAUCAAACCCCCCCAAACCCCCCCAAACCCCCAAAAAAGUAUUAUGUUACGCCGUUCGGAUCUGC | 0.181 |
| ACCAUGCAGGUGGGCAUCUUUGGGAAGUGGGGCAAGGGGGGGAAAGGGAGGGGGGUAACACUUUGGGAACAGGUGGUCCCAGGUCGUUUC | 0.574 |
| CACAGACAACACGCACCCACACAGACACAGAGGGAAGGGGUUGGGAUGGGGACAGGGUGCACACCAGGGCGGGGUAGGACCCCAGCCCCU | 1.31 |
| UCUGUUUCCUCUGCCAGUGGCAAUGCAACACCUAACACUCCUGGGGAUGAGUCUCCCUGUGGUAUUAUUAUUCCUCAUGAAAACUCACCA | 0.38 |
| ACCAUGCAGGUGGGCAUCUUUGGGAAGUGGGGCAAGGGGGGGAUAGGGAGGGGGGUAACACUGUGGGAACAGGUGGUCCCAGGUCGUUUC | 0.785 |
| CACAGACAACACGCACCCACACAGACACUGAGGGAAGGGGUUGGGAUGGGGACAGGGUGCACAGCAGGGCGGGGUAGGACCCCAGCCCCU | 1.28 |

Sample 2
Target: RING finger protein unkempt homolog, zinc fingers 1-6, GST-SBP tag (UNK, Homo sapiens, UniProt Q9C0B0, residues 30-357)
Chain of UniProt Q9C0B0 (30-357, looked up): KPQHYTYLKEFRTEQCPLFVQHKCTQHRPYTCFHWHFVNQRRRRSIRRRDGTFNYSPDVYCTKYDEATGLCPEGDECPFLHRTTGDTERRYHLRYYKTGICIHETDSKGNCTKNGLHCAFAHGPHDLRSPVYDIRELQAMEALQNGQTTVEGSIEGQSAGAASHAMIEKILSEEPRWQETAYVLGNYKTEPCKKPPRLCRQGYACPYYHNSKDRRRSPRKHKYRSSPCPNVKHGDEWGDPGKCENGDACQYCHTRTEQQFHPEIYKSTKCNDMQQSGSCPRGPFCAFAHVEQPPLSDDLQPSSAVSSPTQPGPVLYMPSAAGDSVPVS
Method: RNA Bind-n-Seq
Form: RNA
Sample: in vitro
Concentration: not given
Notes: RNA with constant flanks, human-mouse chimeric sites, ends assumed
Reference: input RNA pool
Reading: higher = stronger binding
Shared flanks, not repeated: GGGAGUUCUACAGUCCGACGAUC … CAACAGAGGAUUGAGCAUCA
| Strand | bound/input enrichment |
| --- | --- |
| GGCCUGGGACCGUCCUGGGCUAGUACAAAUAGCGGCAUGGAGGCUCAGAGAGGAAAGUUUGUUAGUGGAGGCAGUGGAGAGGUCGUCCAUGUACGGUCCUUUACUCGAUAGAUGUGUUCU | 0.568 ratio |
| ACUCAGAGAUCCACCUCCCAAAGUGCUGGGAGUAAAGGUGUGGCCACCACACCUAACUUGAUGGAUAUUUUAUAAAGUUAAUAUGAAUCUUCCUGUUCGUCCAGGGAGCAAGAACGGGUU | 0.33 ratio |
| UGGGCACUCUAUCAGAUAGAUUACUUUUUUAAUGUAGAUGUAAUUUUAAAAAUGAAUGGCUACUUUACACGUUUAACUAGGGUUUUACUAUAUAUGUGUACAUAUGUAUAUAUAUAUAUA | 62.5 ratio |
| UCCUGGUCGUGUCCCAGUGCAGGACGAGAACAUGGACAACUCAAAGCGGACCCUCUAUUGUAGUUCUUGAUUCUCGAAAUGUGCUAUUAUUGUUUGUCUUUUUUUUUUUUUUUUUAAAGA | 0.947 ratio |
| UACUCAACUUUCUUUCCACAUUUUGAAUUCCAAGACAUUAUUCCUCCAGAUGACUUCCUAACGAGUGAUGAAGAGCAAGAUUUGGUUUUAUUUGGAACUAUGAGAGGACAAGUUGUUGGA | 0.139 ratio |
| GUGACUGGUGUUAAGAUUUACCCUCAGCAAAGAAGUGCAGUAGUCACCAUAAUUCCAUCUGUGGUGAGUGCCAGUCAGAUUGUGGAGCUGGUUCCAGACCUCAGUUUAGACAUGGGAACU | 0.174 ratio |
| GUUCGGCUUUGGGAUCAUGCCACAAUGACAGAAGUGAAAUCUCUGAAUUUUAAUAUGUCUGUUAGUAGCAUGGAGUAUAUUCCUGAAGGAGAGAUUUUGGUUAUUACUUAUGGACGAUCU | 0.26 ratio |
| CCUGCUCAGAUCACCAUGAAAGUAAUCCAAGGCCUAUAUAGUGGGGUCACCACAGUGGAACUGGACACCCUGGCUGCUGAAACAGCUGCGACCUUGACCACGAAGCACCCUGACUAUGCC | 0.126 ratio |

Sample 3
Target: Sal-like protein 4, full length isoform B (SALL4, Homo sapiens, UniProt Q9UJQ4-2, residues 1-616)
Method: universal PBM
Form: double-stranded DNA, one strand shown
Sample: in vitro
Concentration: not given
Notes: 8-mer, flanks averaged, mean of replicates
Reading: higher = stronger binding
Construct (chain): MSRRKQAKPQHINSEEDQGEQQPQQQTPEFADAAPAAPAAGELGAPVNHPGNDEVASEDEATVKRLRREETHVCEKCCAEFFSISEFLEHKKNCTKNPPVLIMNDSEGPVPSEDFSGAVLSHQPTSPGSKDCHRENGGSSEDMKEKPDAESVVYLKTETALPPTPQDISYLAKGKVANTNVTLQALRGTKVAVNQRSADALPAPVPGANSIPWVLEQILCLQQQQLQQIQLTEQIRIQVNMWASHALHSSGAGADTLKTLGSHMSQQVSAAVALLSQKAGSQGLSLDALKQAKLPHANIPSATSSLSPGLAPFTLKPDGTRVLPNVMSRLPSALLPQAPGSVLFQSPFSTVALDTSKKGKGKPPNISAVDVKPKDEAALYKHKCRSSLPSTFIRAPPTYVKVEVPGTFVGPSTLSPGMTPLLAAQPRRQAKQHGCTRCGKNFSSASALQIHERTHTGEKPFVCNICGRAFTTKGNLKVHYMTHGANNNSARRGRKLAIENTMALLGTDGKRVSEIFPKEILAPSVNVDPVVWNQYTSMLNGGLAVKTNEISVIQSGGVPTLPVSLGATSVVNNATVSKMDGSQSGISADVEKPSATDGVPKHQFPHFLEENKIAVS
| Strand | E-score |
| --- | --- |
| CCGATGGA | -0.301 |
| CCCGCGGA | -0.238 |
| CGCCGGCA | -0.29 |
| CTATAGGC | -0.0309 |
| GAACGAGC | 0.0381 |
| GCAGCTAA | -0.269 |
| ATCAGTAA | 0.261 |
| TGAGTCCA | -0.0291 |
| AACCTAGC | -0.0962 |
| AGAGAATG | 0.0363 |
| AGACCGAC | -0.318 |
| ATCATGCA | 0.172 |
| AGGTCAAT | 0.207 |
| CCAGTTGC | -0.262 |
| GCCTAGCC | -0.215 |
| TAGCCACA | 0.0911 |
| TCAGTGGA | -0.177 |

Sample 4
Target: Histone acetyltransferase KAT6A, winged helix 1, GST fusion (KAT6A, Homo sapiens, UniProt Q92794, residues 1-85)
Method: protein binding microarray
Form: double-stranded DNA, one strand shown
Sample: in vitro
Concentration: not given
Notes: 8-mer, flanks averaged, mean of 2 arrays, mostly near background
Reference: not given
Reading: higher = stronger binding
Target sequence (chain): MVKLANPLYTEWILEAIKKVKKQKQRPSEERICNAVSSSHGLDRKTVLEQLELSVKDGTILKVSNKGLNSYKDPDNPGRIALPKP
| Strand | E-score |
| --- | --- |
| GTGGCGGA | 0.11 |
| ACAAGTAC | -0.0273 |
| AGGTTCGG | 0.0275 |
| TAGGCCGA | 0.0337 |
| CAGCGTAC | 0.272 |
| AGAGCACG | 0.0239 |
| ACGACTCC | -0.158 |
| AGCTATTA | -0.115 |
| GGTGGGCA | -0.165 |
| AGATGGTC | -0.174 |
| CCTACAGA | -0.128 |
| CACGCTAA | 0.104 |
| GCACCGAC | 0.162 |
| ATGACTAG | 0.00217 |
| AAATAATC | -0.133 |
| AGTCATGG | -0.164 |
| ATTCCGGG | -0.0259 |
| AAGATTCT | -0.187 |

For quick reference, copied from above (sample 3):
| Strand | E-score |
| --- | --- |
| CGCCGGCA | -0.29 |
| CTATAGGC | -0.0309 |
| GAACGAGC | 0.0381 |
| GCAGCTAA | -0.269 |
| ATCAGTAA | 0.261 |
